Results of several laboratories.
Numbered parts are unrelated; each lists some results of a single study. Substitutions count along the parent as printed.

Series 1
Target: Interferon regulatory factor 3, full length, phosphomimetic (IRF3, Homo sapiens, UniProt Q14653, residues 1-427, S386D/S396D/S398D/S402D/T404D/S405D)
Technique: protein-binding microarray
Molecule type: double-stranded DNA, one strand shown
Medium: in vitro
Concentration: 2540 nM top
Setting: 60-bp whole probe
With: salmon DNA 0.4 mg/ml
Relative to: random background probes
Reading: higher = stronger binding
Endpoint: fitted relative affinity
Constant ends, left off below: GCCTAGCAC … GTCTTGATTCGCTTGACGCTGCTG
Construct (chain): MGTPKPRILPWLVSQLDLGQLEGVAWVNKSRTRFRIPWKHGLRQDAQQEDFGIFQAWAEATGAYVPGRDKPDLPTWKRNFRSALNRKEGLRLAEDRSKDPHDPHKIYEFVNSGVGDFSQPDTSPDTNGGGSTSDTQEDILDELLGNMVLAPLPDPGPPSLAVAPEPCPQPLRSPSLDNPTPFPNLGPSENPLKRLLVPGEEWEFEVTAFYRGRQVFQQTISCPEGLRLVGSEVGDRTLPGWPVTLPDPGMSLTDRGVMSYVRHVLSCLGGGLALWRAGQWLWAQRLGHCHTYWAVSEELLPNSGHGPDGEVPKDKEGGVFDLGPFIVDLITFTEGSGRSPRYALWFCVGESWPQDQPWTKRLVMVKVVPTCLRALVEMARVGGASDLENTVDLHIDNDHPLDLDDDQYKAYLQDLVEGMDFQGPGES
GACGGTTTCCCTATCCTGACGTGCTAG: 6.88 z-score
GTCGGACTGCTACTGCTGACGTGCTAG: -0.154 z-score
TTAGGTATCCTACTACTTTAGTGCTAG: 3.15 z-score
GACGGACAGGGGACTGGGGACGTGCTA: -0.883 z-score
GACGAACTGATACTGGAGACGTGCTAG: 0.382 z-score
TCATACATCTCTCTTAAACTGTGCTAG: 0.532 z-score
TTAGGTTTCGGGTATCGGTTGGTGCTA: 4.44 z-score
GACGGACTTGGACTGGGGACGTGCTAG: -0.68 z-score
GACGGACTGCTTACCCTGACGTGCTAG: -0.39 z-score
GACGGTCTCGATATCGGGACGTGCTAG: 0.954 z-score
GACGGTCTCCTTTTCCCGACGTGCTAG: 4.82 z-score
GCAACATTCACCATGGCTAGGTGCTAG: 0.586 z-score
TTAGGTTTCGACTTTCGGTTCGTGCTA: 4.52 z-score
GACCGTATCGGACTGGGGACGTGCTAG: 1.98 z-score
TTAGATTCCGGGTATCGATTAGTGCTA: 1.3 z-score
TCATTTTCATATATATAACTGTGCTAG: 3.03 z-score
TTAGGATTGGGTATCGGTTAGTGCTAG: 0.819 z-score
GACGAACTGAGGTTTCGAGACGTGCTA: 1.11 z-score
TTAGGACTGCCACTGCTTTAGTGCTAG: -0.958 z-score

Series 2
Target: Histone acetyltransferase KAT6A, both winged helices, GST fusion (KAT6A, Homo sapiens, UniProt Q92794, residues 1-181)
Technique: protein binding microarray
Molecule type: double-stranded DNA, one strand shown
Medium: in vitro
Concentration: not given
Setting: 8-mer, flanks averaged, mean of 2 arrays, mostly near background
Relative to: not given
Reading: higher = stronger binding
Endpoint: E-score
Residues (chain): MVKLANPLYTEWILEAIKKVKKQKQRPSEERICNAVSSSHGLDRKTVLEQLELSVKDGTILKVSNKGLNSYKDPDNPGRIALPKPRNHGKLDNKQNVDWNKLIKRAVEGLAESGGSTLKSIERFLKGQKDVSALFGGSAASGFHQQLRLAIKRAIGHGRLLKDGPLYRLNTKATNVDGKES
ATAGCCGA: 0.0709
TATAAGCA: -0.076
AGGCACTA: -0.102
CCGATTGC: 0.153
CAACATAC: 0.0334
AAGGGATG: -0.232
CCGAACGG: 0.256
AGCGGACC: 0.129
CGTCTGAC: 0.0308
AACTTAAA: -0.0936
CGCCGCAA: 0.357
GCTTATTA: 0.0204
ATCCTTTA: -0.167
CTCCGAGA: 0.00358
GTATTACA: -0.0144
AGACCCTG: -0.205
TCACCCCA: -0.116
CTTAGTTA: -0.0602
CAGAGGGG: -0.288
ACAGCTGC: -0.13
CGGGCGCA: 0.278
CGGCGCTC: 0.302
ACCCTCAT: -0.216

Series 3
Target: Ras GTPase-activating protein-binding protein 1, full length (G3BP1, Homo sapiens, UniProt Q13283)
UniProt Q13283, sequence (whole entry, looked up): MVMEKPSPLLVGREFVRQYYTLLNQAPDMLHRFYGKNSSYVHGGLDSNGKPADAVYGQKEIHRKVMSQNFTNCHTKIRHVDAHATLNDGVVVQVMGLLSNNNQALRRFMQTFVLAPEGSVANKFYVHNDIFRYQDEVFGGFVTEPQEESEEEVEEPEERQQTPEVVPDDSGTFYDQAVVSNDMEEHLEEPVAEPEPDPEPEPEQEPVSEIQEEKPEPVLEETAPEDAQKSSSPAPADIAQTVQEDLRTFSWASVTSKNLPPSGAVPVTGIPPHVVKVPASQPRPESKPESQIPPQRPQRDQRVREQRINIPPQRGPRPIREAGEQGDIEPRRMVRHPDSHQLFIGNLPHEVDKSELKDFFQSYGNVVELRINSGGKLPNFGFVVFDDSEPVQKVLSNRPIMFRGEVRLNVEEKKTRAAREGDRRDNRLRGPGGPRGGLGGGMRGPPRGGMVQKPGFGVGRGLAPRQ
Technique: RNA Bind-n-Seq
Molecule type: RNA
Medium: in vitro
Concentration: 200 nM
Setting: whole 134-nt RNA, ends assumed
With: 150 mM LiCl
Relative to: input library
Reading: higher = stronger binding
Endpoint: log2 enrichment
All molecules: 7-deaza-guanosine replaces G
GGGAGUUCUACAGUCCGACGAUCCAAGUCCUGUGCUACACAUCGUAUGUACCGAAUCGGGUUUGGUUUGGGGUUUGGGGAAAGUAUUAUGUUACGCCGUUCGGAUCUGCACUUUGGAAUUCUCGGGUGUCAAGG: -1.42
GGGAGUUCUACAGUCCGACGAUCCCUGUGCUACACAUCGUAUGUACCGAAUCGGAAAAAAGGGAAAAAAGGGGAAAAAAGGGGAAAGUAUUAUGUUACGCCGUUCGGAUCUGCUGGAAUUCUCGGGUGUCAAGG: 0.299
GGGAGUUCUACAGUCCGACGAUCCCUGUGCUACACAUCGUAUGUACCGAAUCGGGGUGGGGUUUUUUUGGGGUUUUUUUGGGGAAAGUAUUAUGUUACGCCGUUCGGAUCUGCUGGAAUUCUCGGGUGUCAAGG: 0.702
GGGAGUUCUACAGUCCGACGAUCAGUCCUGUGCUACACAUCGUAUGUACCGAAUCAAAUUUAAAUUUUUAAAUUUUUAAAAAAGUAUUAUGUUACGCCGUUCGGAUCUGCACUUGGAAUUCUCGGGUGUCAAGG: -2.97
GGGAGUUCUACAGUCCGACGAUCUGGGAGGUGGAUUUUCUUUAUUUUUUUAGCUCAUUUCCAGGGGUGGGAAUUUUUUUUUAAUAUGUGUCAUGAAUAAAGUUGUUUUUGAAAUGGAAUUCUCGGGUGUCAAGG: -0.0293
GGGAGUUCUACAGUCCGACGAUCUCCUGUGCUACACAUCGUAUGUACCGAAUCGGGGUGGGGUUUUUUUGGGGUUUUUGGGGAAAGUAUUAUGUUACGCCGUUCGGAUCUGCAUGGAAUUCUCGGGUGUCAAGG: 0.498
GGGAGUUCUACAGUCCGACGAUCUCAAGUCCUGUGCUACACAUCGUAUGUACCGAAUCGGAAAAAAAGGAAAGGUGGAAAGUAUUAUGUUACGCCGUUCGGAUCUGCACUUCCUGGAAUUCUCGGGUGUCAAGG: -1.12
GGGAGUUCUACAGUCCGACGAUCUCCUGUGCUACACAUCGUAUGUACCGAAUCGGGGUUUUUUGGUUUUUUGGGUUUUUUGGAAAGUAUUAUGUUACGCCGUUCGGAUCUGCAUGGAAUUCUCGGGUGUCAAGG: 0.266
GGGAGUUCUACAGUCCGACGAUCCCUGUGCUACACAUCGUAUGUACCGAAUCGGGUUUUUUGGGGUUUUUUGGGUUUUUUGGGAAAGUAUUAUGUUACGCCGUUCGGAUCUGCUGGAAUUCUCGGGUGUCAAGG: 0.396
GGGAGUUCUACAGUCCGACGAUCGUCCUGUGCUACACAUCGUAUGUACCGAAUCGGGUUUUUGGGUUUGGGAAAAAAAGGGAAAGUAUUAUGUUACGCCGUUCGGAUCUGCACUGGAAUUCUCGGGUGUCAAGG: -1.46
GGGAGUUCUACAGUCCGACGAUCAAGUCCUGUGCUACACAUCGUAUGUACCGAAUCGGUUUUUGGGUUUUUGGUUUUUGGAAAGUAUUAUGUUACGCCGUUCGGAUCUGCACUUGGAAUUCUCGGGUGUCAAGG: -0.46

Series 4
Target: CCND2, cyclin fold, Cln2 fusion (human)
Technique: yeast growth competition, sequencing
Medium: yeast
Setting: weak parent motif
Relative to: not given
Reading: higher = stronger binding
Endpoint: normalised enrichment score
Starting sequence: GMNC docking peptide (human); KNAKRNLSSEFAN; partner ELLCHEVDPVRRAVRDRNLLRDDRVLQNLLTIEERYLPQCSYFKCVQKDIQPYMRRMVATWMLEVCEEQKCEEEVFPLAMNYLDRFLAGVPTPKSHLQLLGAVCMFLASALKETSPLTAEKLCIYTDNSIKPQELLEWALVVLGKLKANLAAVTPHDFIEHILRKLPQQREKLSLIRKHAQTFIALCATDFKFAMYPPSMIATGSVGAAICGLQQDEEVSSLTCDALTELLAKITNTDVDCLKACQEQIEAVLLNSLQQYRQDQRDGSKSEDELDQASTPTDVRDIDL
N6S: 0.227
S9I: 0.271
N2E: 0.185
N2K: 0.755
F11I: 0.176
E10M: -0.0383
S8T: -0.184
F11A: 0.257
E10R: 0.267
A12F: -0.0338
A3G: -0.0654
A12R: 0.197
K4F: 0.131
R5Y: 0.0519
A12Y: 0.233
L7S: -0.0957
N6D: -0.231
R5W: 0.307
A3Y: -0.139
A3W: 0.381
R5L: 0.00835

Series 5
Target: ABI1, truncated, D143A, DHFR fusion (Arabidopsis thaliana)
Technique: DHFR PCA, deep sequencing
Medium: yeast
Setting: methotrexate growth selection, single substitutions
With: (+)-ABA 0.032 µM
Relative to: wild-type fitted maximum
Reading: higher = stronger binding
Endpoint: relative binding score
Starting sequence: PYL1, truncated, DHFR fusion (Arabidopsis thaliana); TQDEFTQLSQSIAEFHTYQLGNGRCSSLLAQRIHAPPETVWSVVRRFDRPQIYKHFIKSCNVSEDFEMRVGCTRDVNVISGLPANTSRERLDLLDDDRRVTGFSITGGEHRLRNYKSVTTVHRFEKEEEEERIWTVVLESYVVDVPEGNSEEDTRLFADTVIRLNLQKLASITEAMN; partner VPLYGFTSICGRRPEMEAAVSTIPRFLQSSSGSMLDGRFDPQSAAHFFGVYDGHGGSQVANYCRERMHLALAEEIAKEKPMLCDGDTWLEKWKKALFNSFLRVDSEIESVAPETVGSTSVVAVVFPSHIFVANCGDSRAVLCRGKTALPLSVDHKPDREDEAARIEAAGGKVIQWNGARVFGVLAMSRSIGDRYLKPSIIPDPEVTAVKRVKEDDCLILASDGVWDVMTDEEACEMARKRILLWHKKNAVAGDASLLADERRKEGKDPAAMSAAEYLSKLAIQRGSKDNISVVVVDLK
L112E: 1.93%
T17R: 2.19%
L8N: -14.1%
A158S: -3.41%
D65L: 4.25%
V121L: -1.64%
V44G: -0.952%
H110A: 41.5%
E151C: 19%
F103P: -2.5%
D95F: -5.21%
S27N: 35.9%
D75V: 35.2%
S63M: 8.25%
E128A: 35.7%
V143L: -2.99%
R99C: 9.18%
I79A: 15.6%
Q7A: 36.1%
T6G: 29.9%

A few entries again (series 2):
CTTAGTTA: -0.0602
CCGAACGG: 0.256
CGGGCGCA: 0.278
CTCCGAGA: 0.00358
CCGATTGC: 0.153
GCTTATTA: 0.0204
TATAAGCA: -0.076
AGCGGACC: 0.129
AGACCCTG: -0.205
ACCCTCAT: -0.216
CGCCGCAA: 0.357
AACTTAAA: -0.0936
CAACATAC: 0.0334
TCACCCCA: -0.116
AGGCACTA: -0.102
